Measured values gathered from unrelated publications.
Several values in a cell are separate wells, animals, samples, runs or records. ± marks the error that the study gave. Converted amounts (≈) assume the structure as drawn.

Structure (SMILES)	tested on	assay	test system	conditions	scale	endpoint	value
O=C(c1cccc(-c2ccc3ncnc(Nc4ccc(OCc5cccc(F)c5)c(Cl)c4)c3c2)c1)N1CCCCC1	Leishmania major	parasite growth, resazurin		promastigote		EC50	> 3 µM
CNS(=O)(=O)Nc1nccc(Cc2c(C)c3ccc(Oc4ncccc4F)cc3oc2=O)c1F	OCI-Ly3	cell viability		7 days		IC50	> 1 µM
COc1ccc(NC(=O)CSc2nc3c(oc4ccccc43)c(=O)n2Cc2ccco2)cc1Cl	Mus musculus	gene silencing, high-content imaging	LDR reporter GFP cells	retest run 2		AC50	10 µM
Nc1c(C(=O)c2ccc(Cl)cc2)sc(S)c1-c1nc2ccccc2s1	human adenovirus type 7	plaque reduction		non-toxic concentration		viral titre reduction	10%
FC(F)(F)c1cccc(CNc2nc(NC3CCN(Cc4ccccc4)CC3)c3nc[nH]c3n2)c1	Cryptococcus neoformans	RNA-seq, measured: CNAG_03277	wild type	48 µg/mL, 3 h	relative to: untreated wild type	log2 fold change	0.589
Nc1ncc(-c2cc(-c3cnn(CC(F)(F)F)c3)ncc2F)nc1C(=O)NC1CNCC(F)C1 (centres unmarked)	FLT3(ITD)	KINOMEscan competition binding		1 µM	relative to: DMSO control	remaining binding	76%
C(=N\Nc1nc(-c2ccccn2)nc2ccccc12)/c1ccccc1	Mus musculus	gene silencing, high-content imaging	LDR reporter GFP cells	30 h, confirmation, mean of two runs		Emax	97%
C=CC(=O)Nc1cccc(Cn2ncc3cnc(Nc4cnn(CCOC)c4)nc32)c1	CDC2L1 human	binding, KINOMEscan		100 nM	lower = stronger binding	percent of control	100%
C=CCO/N=C(\C(=O)N[C@@H]1C(=O)N(OS(=O)(=O)O)C1(C)C)c1csc(N)n1	Proteus vulgaris	agar dilution	ATCC 29905, susceptible			MIC	≤ 0.03 µg/mL
COc1cccc(/C=N/Nc2nc(Nc3ccccc3)nc(-n3nc(C)cc3C)n2)c1O	Mus musculus	gene silencing, high-content imaging	LDR reporter GFP cells	30 h, retest run 2		Emax	99%
Cc1c(CN(C)C(=O)/C=C/c2cnc3c(c2)CC(N)C(=O)N3)oc2ccccc12 (centres unmarked)	Klebsiella pneumoniae	microbial growth, broth dilution	BAA1705			MIC	8 µg/mL (≈ 20.5 µM)
CN1CCN(S(=O)(=O)c2ccc(-c3ccc4ncnc(Nc5ccc(Cl)cc5)c4c3)cc2)CC1	Leishmania major	parasite growth, resazurin		promastigote		EC50	4.6 µM
COc1ccc(S(=O)(=O)N(C)c2cc(OC)cc(C(=O)O)c2)cc1	Leishmania infantum	intracellular amastigote growth	U-937 macrophages and HeLa		relative to: IC50 HeLa over IC50 amastigotes	selectivity index	> 2.7
COC1CN([C@H]2CC[C@H]([C@@]3(C)Oc4c(Cl)cc(C(=O)NCc5c(SC)cc(C)[nH]c5=O)c(C)c4O3)CC2)C1		RNA-seq, measured: TLCD2 mouse homolog	mouse, HT-1376 xenograft, whole blood	dose not given	relative to: vehicle	log2 fold change	0.0554
OB(O)c1ccc(C(F)(F)F)s1	Streptococcus pyogenes			100 µM, 10 h	relative to: untreated	growth	80.1% and 86% and 99.3% and 77% and 84.5%
CCN(CC)CCCNC(=O)CSc1c2c(nc3cc(Cl)ccc13)CCCC2	Mus musculus	gene silencing, high-content imaging	LDR reporter GFP cells	30 h, confirmation, mean of two runs		Emax	63%
Clc1cc(Nc2ncnc3ccc(-c4cccc(N5CCOCC5)c4)cc23)ccc1OCc1ccccc1	Leishmania major	parasite growth, resazurin		promastigote		EC50	6.6 µM
CC(C)n1ncc2c(C(=O)NCC(C)(C)N)cc(C3CC3)nc21	Enterovirus D68	viral replication	RD, US/MO/14-18947	300 nM		plaque reduction	41.2% and 43.8%
CC1(C)[C@H](NC(=O)/C(=N\OCC(=O)N2CCC[C@@H]2C(=O)O)c2nsc(N)n2)C(=O)N1OS(=O)(=O)O	Shigella flexneri	agar dilution	ATCC 12022, susceptible			MIC	2 µg/mL (≈ 3.73 µM)
N=C(S)N/N=C/c1ncc(C(F)(F)F)cc1Cl	Mus musculus	gene silencing, high-content imaging	LDR reporter GFP cells	confirmation, mean of two runs		EC50	7.94 µM
CC1(C)C(NC(=O)C(=NOCC(=O)N2CC3CCCC3C2C(=O)O)c2csc(N)n2)C(=O)N1OS(=O)(=O)O (centres unmarked)	Shigella flexneri	agar dilution	ATCC 12022, susceptible			MIC	2 µg/mL (≈ 3.48 µM)
C[n+]1cccc2cc(/C=N/NC(=O)c3cccc(C(=O)N/N=C/c4ccc5c(ccc[n+]5C)c4)c3)ccc21	MYC parallel G4 DNA	FRET melting		1 µM, DNA 0.2 µM		ΔTm	3.7 ± 0.1 °C

Structure (SMILES)	tested on	assay	test system	conditions	scale	endpoint	value
[2H]C([2H])(N)C([2H])([2H])NC(=O)c1cc(C2CC2)nc2c1cnn2C(C)C	Enterovirus D68	viral replication	RD, US/MO/14-18947	1000 nM		plaque reduction	98.8% and 99.4%
O=C(c1ccc(-c2ccc3ncnc(Nc4ccc(OCc5cccc(F)c5)c(Cl)c4)c3c2)cc1)N1CCOCC1	Leishmania major	parasite growth, resazurin		promastigote		EC50	0.85 µM
O=[N+]([O-])C(=C\Nc1ccccc1O)/C=N/c1ccccc1O	Mus musculus	gene silencing, high-content imaging	LDR reporter GFP cells	30 h, confirmation, mean of two runs		Emax	29%
C=C(NC(=O)c1csc(-c2nc3c(cc2O)-c2nc(cs2)C(=O)NC(C(C)O)C(=O)NC(=C(C)OC)c2nc(cs2)C(=O)NC2c4nc(cs4)C(=O)NC(COC(=O)c4c5c6c(cccc6n4O)COC(=O)C(OC4CC(C)(O)C(N(C)C)C(C)O4)C2OC5)c2nc-3cs2)n1)C(N)=O (centres unmarked)	Staphylococcus epidermidis	broth microdilution	methicillin-resistant isolates			MIC50	0.0156 µg/mL (≈ 0.0109 µM)
CC(C)n1ncc2c(C(=O)NC[C@@H](C)N)cc(C3CC3)nc21	Enterovirus D68	viral replication	RD, US/MO/14-18947	300 nM		plaque reduction	56.4% and 63.9%
CC(C)(O/N=C(\C(=O)N[C@@H]1C(=O)N(OS(=O)(=O)O)C1(C)C)c1nsc(N)n1)C(=O)O	Proteus vulgaris	agar dilution	ATCC 29905, susceptible			MIC	8 µg/mL (≈ 17.2 µM)
CC(C)(C)NCC(SS(=O)(=O)O)c1ccccc1 (centres unmarked)	Schistosoma mansoni		mice	600 mg/kg single dose, 1056 h, dosed day 15, perfused 44	relative to: vehicle	male worm burden reduction	92%
Cc1ncsc1-c1ccc(C(C)NC(=O)C2CC(O)CN2C(=O)C(NC(=O)CCCCCCCCCCN2CCCC(Nc3ncc(Cl)c(Nc4ccccc4S(=O)(=O)C(C)C)n3)C2)C(C)(C)C)cc1 (centres unmarked)	22Rv1	RNA-seq, measured: TGIF2 mRNA		concentration not given	relative to: DMSO	log2 fold change	-1.66
C#CCNC(=O)C(C)(C)O/N=C(\C(=O)N[C@@H]1C(=O)N(S(=O)(=O)O)[C@H]1C)c1csc(N)n1	Shigella flexneri	agar dilution	ATCC 12022 susceptible			MIC	1 µg/mL (≈ 2.12 µM)
C[n+]1ccc(/C=N/NC(=O)c2ccc3ccc(C(=O)N/N=C/c4cc[n+](C)cc4)nc3n2)cc1	MYC parallel G4 DNA	FRET melting		1 µM, DNA 0.2 µM		ΔTm	3.2 ± 0.4 °C
CC1=C/C(=N\N=C(/S)Nc2cccnc2)CC(C)(C)C1	Mus musculus	gene silencing, high-content imaging	LDR reporter GFP cells	retest run 1		AC50	2 µM
CC1C=CC=CC(C)C2C=CC3CC(C)(O)C(Cl)C(C)C3C2C(=O)C(Cl)(Cl)C(=O)C(C)C(=O)O1 (centres unmarked)	Staphylococcus aureus		MRSA clinical isolate	resistant: OXA,CIP,CLI,DAP,ERY,LVX,MXF,TOB		MIC	0.025 µg/mL (≈ 0.047 µM)
C#CCO/N=C(\C(=O)N[C@@H]1C(=O)N(OS(=O)(=O)O)C1(C)C)c1nsc(N)n1	Shigella flexneri	agar dilution	ATCC 12022, susceptible			MIC	8 µg/mL (≈ 19.1 µM)
Cc1cnc(CNC(=O)c2c(=O)c3ccc(N4CCCN(C)CC4)nc3n3c2sc2ccccc23)cn1	Trypanosoma brucei	RNA-seq	Lister 427 bloodstream form	2 x EC50, 4 h, log2 FC ±1, FDR 0.05	relative to: untreated	downregulated genes	314 genes
O=S(=O)(c1ccc(-c2ccc3ncnc(Nc4ccc(OCc5cccc(Cl)c5)c(Cl)c4)c3c2)cc1)N1CCOCC1	Leishmania major	parasite growth, resazurin		promastigote		EC50	> 15 µM
Cc1ccc(C(C)C)c(OCc2ccc(C(=O)N/N=C/c3cccc(O)c3O)cc2)c1	Mus musculus	gene silencing, high-content imaging	LDR reporter GFP cells	retest run 2		AC50	1.26 µM
CN1CCN(S(=O)(=O)c2cccc(-c3ccc4ncnc(Nc5ccc(OCc6cccc(F)c6)c(Cl)c5)c4c3)c2)CC1	Leishmania major	parasite growth, resazurin		promastigote		EC50	> 15 µM
CC(=O)O[C@@H]1[C@@H](OC(C)=O)[C@H](Sc2sc(C(=O)c3ccc(Br)cc3)c(N)c2-c2nc3ccccc3s2)OC[C@@H]1OC(C)=O	human adenovirus type 7	plaque reduction		non-toxic concentration		viral titre reduction	30%
Fc1cccc(COc2ccc(Nc3ncnc4ccc(-c5cccc(N6CCSCC6)c5)cc34)cc2Cl)c1	Leishmania major	parasite growth, resazurin		promastigote		EC50	> 15 µM
CO[C@H]1O[C@H](COC(c2ccccc2)(c2ccccc2)c2ccccc2)[C@@H](OS(=O)(=O)c2ccccc2)[C@H](OS(=O)(=O)c2ccccc2)[C@H]1OS(=O)(=O)c1ccccc1	Bacillus cereus	microbial killing, broth dilution				MBC	8 µg/mL (≈ 9.33 µM)
O=C(c1cncc(-c2ccc3ncnc(Nc4ccc(OCc5cccc(F)c5)c(Cl)c4)c3c2)c1)N1CCOCC1	Leishmania major	parasite growth, resazurin		promastigote		EC50	> 15 µM
CCCOC(=O)N1c2cc(CNC)ccc2[C@H](NC(=O)C(=O)Nc2ccc(Cl)c(F)c2)[C@H]1CNC(=N)N	HIV-1	pseudovirus infection, Env pseudovirus neutralisation	TZM-bl, clade C			IC50	0.528 µM

A few entries again:
Structure (SMILES)	tested on	assay	test system	conditions	scale	endpoint	value
O=C(c1cncc(-c2ccc3ncnc(Nc4ccc(OCc5cccc(F)c5)c(Cl)c4)c3c2)c1)N1CCOCC1	Leishmania major	parasite growth, resazurin		promastigote		EC50	> 15 µM
O=C(c1cccc(-c2ccc3ncnc(Nc4ccc(OCc5cccc(F)c5)c(Cl)c4)c3c2)c1)N1CCCCC1	Leishmania major	parasite growth, resazurin		promastigote		EC50	> 3 µM
Cc1ncsc1-c1ccc(C(C)NC(=O)C2CC(O)CN2C(=O)C(NC(=O)CCCCCCCCCCN2CCCC(Nc3ncc(Cl)c(Nc4ccccc4S(=O)(=O)C(C)C)n3)C2)C(C)(C)C)cc1 (centres unmarked)	22Rv1	RNA-seq, measured: TGIF2 mRNA		concentration not given	relative to: DMSO	log2 fold change	-1.66
Cc1c(CN(C)C(=O)/C=C/c2cnc3c(c2)CC(N)C(=O)N3)oc2ccccc12 (centres unmarked)	Klebsiella pneumoniae	microbial growth, broth dilution	BAA1705			MIC	8 µg/mL (≈ 20.5 µM)
